Experimental data of several laboratories.
Compare with care: the assays were run in different laboratories. “And” joins repeats or separate records; there may be more than shown.

With `COCCOCCOCCOc1ccc(/C=C/C2=[N+]3C(=C(c4cc(OC)cc(OC)c4)c4c(C)c(I)c(/C=C/c5ccc(OCCOCCOCCOC)cc5)n4[B-]3(F)F)C(C)=C2I)cc1` the emission maximum was 695 nm (DMSO).
The emission maximum of `Nc1nc(-n2nnc3c2CCC2C(CO)C2CC3)nc2c1ncn2C1OC(CO)C(O)C1O` (mixture of isomers) is reported as 405 nm (50 mM phosphate buffer; pH 7.0).
With `CC[N+]1=C(C=CC=CC=C2N(CCCCCC(=O)O)c3ccc4c(S(=O)(=O)[O-])cc(S(=O)(=O)[O-])cc4c3C2(C)C)C(C)(C)c2c1ccc1c(S(=O)(=O)[O-])cc(S(=O)(=O)[O-])cc21.[K+].[K+].[K+]` the emission maximum was 695 nm (100% serum; pH 7.4).
`COC(=O)c1ccccc1-c1c2ccc(=O)cc-2oc2c1ccc1cccc(OC)c12` has an emission maximum of 580 nm (phosphate buffer; pH 7.4, 10% DMSO).
`COc1cc(OC)cc(C2=C3C(C)=C(I)C(/C=C/c4cccs4)=[N+]3[B-](F)(F)n3c(/C=C/c4cccs4)c(I)c(C)c32)c1` has an emission maximum of 682 nm (dichloromethane).
`CC1(C)C(=CC=C(C=CC2=[N+](CCC[N+](C)(C)C)c3ccc(S(=O)(=O)[O-])cc3C2(C)C)Oc2ccc(CCC(=O)[O-])cc2)N(CCC[N+](C)(C)C)c2ccc(S(=O)(=O)[O-])cc21` has an emission maximum of 672 nm (100% serum; pH 7.4).
`NCCC(=O)N1Cc2ccccc2-c2c(nnn2-c2nc3c(N)ncnc3n2C2OC(CO)C(O)C2O)-c2ccccc21` (mixture of isomers) gave an emission maximum of 440 nm (methanol).
`COc1cc(OC)cc(C2=C3C(C)=C(I)C(/C=C/c4c[nH]c5ccccc45)=[N+]3[B-](F)(F)n3c(/C=C/c4c[nH]c5ccccc45)c(I)c(C)c32)c1` gave an emission maximum of 771 nm (DMSO).
The emission maximum of `NCCC(=O)N1Cc2ccccc2-c2c(nnn2-c2cn(C3OC(CO)C(O)C3O)c(=O)[nH]c2=O)-c2ccccc21` (mixture of isomers) is reported as 361 nm (methanol).
For `CC1=CC(C)=[N+]2C1=C(CCCC(=O)O)c1c(C)cc(C)n1[B-]2(F)F`, the emission maximum was 505 nm (acetonitrile/water).
With `CCn1cc(/C=C/c2sc3ccccc3[n+]2CC)c2ccccc21` the emission maximum was 538 nm (PBS; with: excitation 488 nm).
The emission maximum of `COc1ccc2c(c1)c(CC(=O)NCCCCNC(=O)c1ccc(C3=c4cc5c6c(c4Oc4c3cc3c7c4C(C)(C)CCN7CCC3(C)C)C(C)(C)CC[N+]=6CCC5(C)C)c(C(=O)[O-])c1)c(C)n2C(=O)c1ccc(Cl)cc1` is reported as 595 nm (fluorescence spectroscopy; pH 7).
With `CCOC(=O)c1[nH]c(C)c(/C=C/c2c(I)c(C)c3n2[B-](F)(F)[N+]2=C(C)C(I)=C(C)C2=C3c2cc(OC)cc(OC)c2)c1C` the emission maximum was 639 nm (DMSO).
`CCn1cc(/C=C/c2ccc3ccccc3[n+]2CC)c2ccccc21` gave an emission maximum of 555 nm (MeOH; with: excitation 488 nm).
With `COc1cc(OC)cc(C2=C3C(C)=C(I)C(C)=[N+]3[B-](F)(F)n3c(/C=C/c4cccs4)c(I)c(C)c32)c1` the emission maximum was 610 nm (THF).
With `Cc1nc(C#N)ccc1N` the emission maximum was 380 nm (phosphate buffer with BSA; pH 8, 37 °C, 1% DMSO).
`CC1=CC(C)=[N+]2C1=C(c1ccc(C[P+](c3ccccc3)(C3CCCCC3)C3CCCCC3)cc1)c1c(C)cc(C)n1[B-]2(F)F` gave an emission maximum of 511 nm (PBS; 10 µM, pH 7.4, 298 K, with: excitation 497 nm).
The emission maximum of `COc1cc(OC)cc(C2=C3C(C)=C(I)C(/C=C/c4c[nH]c5ccc([N+](=O)[O-])cc45)=[N+]3[B-](F)(F)n3c(/C=C/c4c[nH]c5ccc([N+](=O)[O-])cc45)c(I)c(C)c32)c1` is reported as 720 nm (THF).
The emission maximum of `NCCC(=O)N1Cc2ccccc2-c2c(nnn2-c2nc(N)c3ncn(C4OC(CO)C(O)C4O)c3n2)-c2ccccc21` (mixture of isomers) is reported as 439 nm (50 mM phosphate buffer; pH 7.0).
For `COc1ccc(/C=C/c2ccc(-c3ccc(C)cn3)nc2)cc1`, the emission maximum was 460 nm (aqueous HEPES buffer; pH 7.4, zinc-free ligand).
With `CC1=CC(C)=[N+]2C1=C(c1ccc(C[P+](c3ccccc3)(c3ccccc3)C3CCCCC3)cc1)c1c(C)cc(C)n1[B-]2(F)F` the emission maximum was 511 nm (PBS; 10 µM, pH 7.4, 298 K, with: excitation 497 nm).
The emission maximum of `CC1=CC(C)=[N+]2C1=C(CCCC(=O)NCC1CCC(C(=O)NC(Cc3ccc4ccccc4c3)C(=O)NCCCCC(NC(=O)NC(CCC(=O)O)C(=O)O)C(=O)O)CC1)c1c(C)cc(C)n1[B-]2(F)F` (stereo not drawn) is reported as 504 nm (acetonitrile/water).
`CCCCN1C(=O)c2cccc3c(NCCCCCN4CCOCC4)ccc(c23)C1=O` has an emission maximum of 553 nm (aqueous medium; pH 6).
With `COc1ccc2c(c1)c(CC(=O)OCCN1CCN(CCCN3c4ccccc4Sc4ccc(Cl)cc43)CC1)c(C)n2C(=O)c1ccc(Cl)cc1` the emission maximum was 505 nm (fluorescence spectroscopy; pH 7).
`COC(=O)c1ccccc1-c1c2ccc(=O)cc-2oc2c1ccc1cccc(O)c12` gave an emission maximum of 600 nm (HCl 12.5 mM; pH 1.9, 10% DMSO).
`CC1=CC(C)=[N+]2C1=C(CCCC(=O)NCCCCCC(=O)NCCCC[C@H](NC(=O)N[C@@H](CCC(=O)O)C(=O)O)C(=O)O)c1c(C)cc(C)n1[B-]2(F)F` has an emission maximum of 506 nm (acetonitrile/water).
For `O=c1c(Br)c2oc3c(CN(Cc4ccccn4)Cc4cnccn4)c(O)ccc3nc-2c2ccccc12`, the emission maximum was 628 nm (PIPES buffer; pH 7.0, Zn(II)-saturated).
For `COc1ccc2c(c1)c(CC(=O)NCCCCNC(=O)c1ccc(C3=c4cc5c6c(c4Oc4c3cc3c7c4CCCN7CCC3)CCC[N+]=6CCC5)c(C(=O)[O-])c1)c(C)n2C(=O)c1ccc(Cl)cc1`, the emission maximum was 605 nm (fluorescence spectroscopy; pH 7).
With `Nc1ncnc2c1nc(-n1nnc3c1CCC1C(CO)C1CC3)n2C1OC(CO)C(O)C1O` (mixture of isomers) the emission maximum was 403 nm (50 mM phosphate buffer; pH 7.0).
`CCCCN1C(=O)c2cccc3c(NCCCN4CCOCC4)ccc(c23)C1=O` gave an emission maximum of 548 nm (aqueous medium; pH 6).
For `COc1cc(OC)cc(C2=C3C(C)=C(I)C(C)=[N+]3[B-](F)(F)n3c(C)c(I)c(C)c32)c1`, the emission maximum was 551 nm (DMSO).
With `CC1(C)C(/C=C/C2=C(Cl)C(=C/C=C3/N(CCCCCC(=O)O)c4ccccc4C3(C)C)/C[N+](C)(C)C2)=[N+](CCCCCC(=O)O)c2ccccc21` the emission maximum was 768 nm (10 mM PBS; pH 7.4).
`CCCCN1C(=O)c2cccc3c(NCCCCCCCCCCN4CCOCC4)ccc(c23)C1=O` has an emission maximum of 558 nm (aqueous medium; pH 6).
For `COC(=O)c1ccccc1-c1c2ccc(=O)cc-2oc2c1ccc1cccc(N)c12`, the emission maximum was 530 nm and 750 nm (NaOH 12.5 mM; pH 12.1, 10% DMSO).
For `CCCCN1C(=O)c2cccc3c(NCCCCCCN4CCOCC4)ccc(c23)C1=O`, the emission maximum was 556 nm (aqueous medium; pH 6).
`Cc1ccc(-c2ccc(-c3cc4sccc4o3)cn2)nc1` has an emission maximum of 495 nm (aqueous HEPES buffer; pH 7.4, zinc(II) complex).
For `CCOC(=O)c1[nH]c(C)c(/C=C/C2=[N+]3C(=C(c4cc(OC)cc(OC)c4)c4c(C)c(I)c(/C=C/c5c(C)[nH]c(C(=O)OCC)c5C)n4[B-]3(F)F)C(C)=C2I)c1C`, the emission maximum was 710 nm (dichloromethane).
`Nc1ncnc2c1nc(-n1nnc3c1CCC1C(CO)C1CC3)n2C1CC(O)C(CO)O1` (mixture of isomers) has an emission maximum of 397 nm (methanol).
With `COc1ccc2cc(-c3ccc(-c4ccc(C)cn4)nc3)oc2c1` the emission maximum was 538 nm (acetonitrile; zinc complex).

A few entries again:
The emission maximum of `NCCC(=O)N1Cc2ccccc2-c2c(nnn2-c2nc(N)c3ncn(C4OC(CO)C(O)C4O)c3n2)-c2ccccc21` (mixture of isomers) is reported as 439 nm (50 mM phosphate buffer; pH 7.0).
For `CCOC(=O)c1[nH]c(C)c(/C=C/C2=[N+]3C(=C(c4cc(OC)cc(OC)c4)c4c(C)c(I)c(/C=C/c5c(C)[nH]c(C(=O)OCC)c5C)n4[B-]3(F)F)C(C)=C2I)c1C`, the emission maximum was 710 nm (dichloromethane).
The emission maximum of `NCCC(=O)N1Cc2ccccc2-c2c(nnn2-c2cn(C3OC(CO)C(O)C3O)c(=O)[nH]c2=O)-c2ccccc21` (mixture of isomers) is reported as 361 nm (methanol).
`Nc1ncnc2c1nc(-n1nnc3c1CCC1C(CO)C1CC3)n2C1CC(O)C(CO)O1` (mixture of isomers) has an emission maximum of 397 nm (methanol).
With `CC1(C)C(/C=C/C2=C(Cl)C(=C/C=C3/N(CCCCCC(=O)O)c4ccccc4C3(C)C)/C[N+](C)(C)C2)=[N+](CCCCCC(=O)O)c2ccccc21` the emission maximum was 768 nm (10 mM PBS; pH 7.4).
